Published values collected from several papers.
Compare with care: the assays were run in different laboratories. Several values in a cell are separate wells, animals, samples, runs or records. Numbers after ± are the reported error.
MAPK8: Mitogen-activated protein kinase 8 (MAPK8, Homo sapiens, UniProt P45983)

Chains of the proteins cited; added tags and fusions are not shown. Lines headed by an entry give the natural chain unless they say otherwise; changes in a name come on top. Residues count along the entry.
UniProt P45983, whole entry: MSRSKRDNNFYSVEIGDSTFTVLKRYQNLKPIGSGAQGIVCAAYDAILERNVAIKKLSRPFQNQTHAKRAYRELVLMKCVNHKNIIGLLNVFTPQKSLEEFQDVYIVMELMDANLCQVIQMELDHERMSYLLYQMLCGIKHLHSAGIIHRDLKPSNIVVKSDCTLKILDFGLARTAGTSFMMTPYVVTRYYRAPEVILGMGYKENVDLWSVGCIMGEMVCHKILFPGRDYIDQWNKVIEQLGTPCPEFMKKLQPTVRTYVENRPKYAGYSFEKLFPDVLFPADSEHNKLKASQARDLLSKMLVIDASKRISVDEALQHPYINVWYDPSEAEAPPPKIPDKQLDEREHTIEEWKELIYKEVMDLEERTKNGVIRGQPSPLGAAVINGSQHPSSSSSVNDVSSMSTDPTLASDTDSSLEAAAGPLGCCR
UniProt P45983, 1-384 isoform 3: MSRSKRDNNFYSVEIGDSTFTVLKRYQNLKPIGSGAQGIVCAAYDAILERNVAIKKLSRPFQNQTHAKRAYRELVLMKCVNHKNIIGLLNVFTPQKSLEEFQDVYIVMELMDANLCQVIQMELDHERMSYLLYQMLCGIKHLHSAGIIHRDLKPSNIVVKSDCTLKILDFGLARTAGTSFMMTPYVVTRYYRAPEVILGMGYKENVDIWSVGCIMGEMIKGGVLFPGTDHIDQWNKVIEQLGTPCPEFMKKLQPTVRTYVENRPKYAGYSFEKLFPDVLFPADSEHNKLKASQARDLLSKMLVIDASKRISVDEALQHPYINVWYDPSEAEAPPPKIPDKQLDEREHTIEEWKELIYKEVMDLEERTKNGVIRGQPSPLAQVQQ
UniProt Q9EP80, whole entry: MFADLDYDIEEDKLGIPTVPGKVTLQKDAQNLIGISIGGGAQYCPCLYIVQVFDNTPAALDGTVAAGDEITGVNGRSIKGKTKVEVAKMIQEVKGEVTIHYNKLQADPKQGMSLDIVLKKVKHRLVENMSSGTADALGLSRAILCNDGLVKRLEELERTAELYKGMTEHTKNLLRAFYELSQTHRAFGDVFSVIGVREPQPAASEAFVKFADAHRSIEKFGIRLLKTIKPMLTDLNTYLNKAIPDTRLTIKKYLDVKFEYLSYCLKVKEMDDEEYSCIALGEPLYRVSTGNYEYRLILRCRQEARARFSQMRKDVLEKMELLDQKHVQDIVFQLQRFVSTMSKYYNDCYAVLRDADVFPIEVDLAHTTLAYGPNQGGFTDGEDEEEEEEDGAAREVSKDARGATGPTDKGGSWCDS
UniProt Q04609, whole entry: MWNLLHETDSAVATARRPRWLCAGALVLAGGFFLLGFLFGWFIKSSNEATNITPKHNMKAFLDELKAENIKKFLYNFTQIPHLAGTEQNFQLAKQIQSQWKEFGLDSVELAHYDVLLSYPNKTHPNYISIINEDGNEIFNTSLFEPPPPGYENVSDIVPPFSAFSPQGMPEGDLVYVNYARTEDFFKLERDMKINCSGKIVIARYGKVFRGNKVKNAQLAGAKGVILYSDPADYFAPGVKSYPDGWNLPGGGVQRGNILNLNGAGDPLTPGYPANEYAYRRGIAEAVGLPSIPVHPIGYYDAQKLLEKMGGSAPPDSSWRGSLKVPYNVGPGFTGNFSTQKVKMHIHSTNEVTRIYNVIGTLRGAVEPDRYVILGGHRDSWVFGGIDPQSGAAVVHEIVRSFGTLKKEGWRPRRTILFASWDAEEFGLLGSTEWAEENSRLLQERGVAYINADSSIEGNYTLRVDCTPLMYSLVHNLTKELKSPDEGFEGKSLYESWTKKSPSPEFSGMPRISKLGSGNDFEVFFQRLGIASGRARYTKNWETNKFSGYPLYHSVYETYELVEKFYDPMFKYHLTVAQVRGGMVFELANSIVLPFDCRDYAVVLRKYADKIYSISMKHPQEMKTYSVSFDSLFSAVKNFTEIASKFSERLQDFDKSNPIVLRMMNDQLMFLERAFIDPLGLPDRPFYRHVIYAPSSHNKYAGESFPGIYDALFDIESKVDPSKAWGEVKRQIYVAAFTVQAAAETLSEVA
UniProt P42264, 32-919 limits assumed: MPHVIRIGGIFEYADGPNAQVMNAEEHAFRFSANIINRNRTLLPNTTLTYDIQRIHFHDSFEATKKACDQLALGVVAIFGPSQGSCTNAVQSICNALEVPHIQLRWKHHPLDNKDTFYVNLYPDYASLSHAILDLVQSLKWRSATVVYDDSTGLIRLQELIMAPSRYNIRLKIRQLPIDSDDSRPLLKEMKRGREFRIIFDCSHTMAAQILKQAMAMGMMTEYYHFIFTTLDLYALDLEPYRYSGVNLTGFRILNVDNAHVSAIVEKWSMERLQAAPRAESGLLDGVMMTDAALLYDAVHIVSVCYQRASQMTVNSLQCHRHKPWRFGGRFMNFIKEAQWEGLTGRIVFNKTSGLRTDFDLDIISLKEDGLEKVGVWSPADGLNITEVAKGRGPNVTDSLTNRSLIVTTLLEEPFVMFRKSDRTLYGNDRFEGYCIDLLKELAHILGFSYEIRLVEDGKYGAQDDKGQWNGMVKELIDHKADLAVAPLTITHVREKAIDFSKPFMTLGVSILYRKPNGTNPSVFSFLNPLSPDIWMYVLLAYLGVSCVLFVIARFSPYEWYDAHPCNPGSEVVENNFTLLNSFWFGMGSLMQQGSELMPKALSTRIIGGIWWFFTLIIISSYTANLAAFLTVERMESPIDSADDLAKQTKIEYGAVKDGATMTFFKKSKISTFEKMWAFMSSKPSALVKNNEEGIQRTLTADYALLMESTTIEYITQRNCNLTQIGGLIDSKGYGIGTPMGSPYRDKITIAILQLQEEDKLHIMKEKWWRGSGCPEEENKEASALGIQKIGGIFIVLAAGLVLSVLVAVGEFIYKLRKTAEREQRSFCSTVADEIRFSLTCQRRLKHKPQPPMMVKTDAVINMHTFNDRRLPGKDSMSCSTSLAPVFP
UniProt Q9R0C9, whole entry: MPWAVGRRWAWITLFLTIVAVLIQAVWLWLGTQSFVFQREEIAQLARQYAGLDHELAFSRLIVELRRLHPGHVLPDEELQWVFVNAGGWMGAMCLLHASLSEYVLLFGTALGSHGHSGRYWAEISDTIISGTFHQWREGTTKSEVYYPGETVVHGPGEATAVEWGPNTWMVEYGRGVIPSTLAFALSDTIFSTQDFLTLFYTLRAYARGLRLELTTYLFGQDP
UniProt Q07440, whole entry P104K/C113S, looked up: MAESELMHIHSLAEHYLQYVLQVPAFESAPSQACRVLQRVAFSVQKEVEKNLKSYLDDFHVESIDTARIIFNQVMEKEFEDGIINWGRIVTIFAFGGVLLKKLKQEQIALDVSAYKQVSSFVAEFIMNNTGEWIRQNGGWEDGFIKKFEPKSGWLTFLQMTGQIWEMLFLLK
UniProt Q5U3Y7, whole entry: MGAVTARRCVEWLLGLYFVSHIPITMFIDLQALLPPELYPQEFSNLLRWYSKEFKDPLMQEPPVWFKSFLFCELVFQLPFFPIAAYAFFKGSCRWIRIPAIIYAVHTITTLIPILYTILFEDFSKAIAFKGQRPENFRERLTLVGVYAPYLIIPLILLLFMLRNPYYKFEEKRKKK
UniProt P47900, whole entry: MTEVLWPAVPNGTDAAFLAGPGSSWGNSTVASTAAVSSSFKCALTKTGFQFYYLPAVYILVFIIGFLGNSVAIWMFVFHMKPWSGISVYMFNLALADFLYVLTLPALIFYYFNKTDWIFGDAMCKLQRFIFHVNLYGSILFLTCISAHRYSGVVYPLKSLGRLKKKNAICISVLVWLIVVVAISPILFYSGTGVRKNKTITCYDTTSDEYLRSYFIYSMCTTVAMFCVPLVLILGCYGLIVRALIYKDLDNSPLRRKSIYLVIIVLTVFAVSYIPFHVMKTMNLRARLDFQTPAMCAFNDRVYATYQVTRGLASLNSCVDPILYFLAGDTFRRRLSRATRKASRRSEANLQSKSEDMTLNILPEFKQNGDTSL
UniProt P28867, 231-280 limits assumed: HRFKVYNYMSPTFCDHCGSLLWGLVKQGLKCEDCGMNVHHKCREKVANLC
UniProt Q16539, whole entry: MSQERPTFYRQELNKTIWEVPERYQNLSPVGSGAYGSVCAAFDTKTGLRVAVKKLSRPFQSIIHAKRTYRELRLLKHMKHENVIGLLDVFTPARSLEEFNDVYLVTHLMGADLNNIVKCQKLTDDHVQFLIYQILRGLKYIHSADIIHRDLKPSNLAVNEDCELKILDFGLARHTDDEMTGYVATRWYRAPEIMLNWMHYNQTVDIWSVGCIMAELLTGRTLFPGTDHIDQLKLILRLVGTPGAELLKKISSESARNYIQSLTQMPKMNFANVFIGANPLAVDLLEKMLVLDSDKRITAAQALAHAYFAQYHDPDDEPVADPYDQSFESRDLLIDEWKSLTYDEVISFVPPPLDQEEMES

SMILES | target | test | test system | setting | Ki
CC(C)OC(=O)NC(=O)/C(C#N)=C/c1ccc(Cl)c(Cl)c1 | PRKCA-binding protein, PDZ domain (Pick1, Rattus norvegicus, UniProt Q9EP80) | binding, fluorescence polarization |  | added: labelled hDAT C-terminal peptide | 11000 ± 1700 nM
CC1(C)C(=CC=CC=CC=CC2=[N+](CCCCS(=O)(=O)[O-])c3ccc4ccccc4c3C2(C)C)N(CCCCCC(=O)NCCOCCOCC(=O)NCCCC[C@H](NC(=O)N[C@@H](CCC(=O)O)C(=O)O)C(=O)O)c2ccc3ccccc3c21 | Glutamate carboxypeptidase 2 (FOLH1, Homo sapiens, UniProt Q04609) | enzyme activity, inhibitor |  | compound in DMSO, added: [3H]NAAG 30 nM | 0.4 ± 0.06 nM
O=C(O)c1cc(C(=O)N2CCC[C@H]2C(=O)O)cc([C@H]2CCN[C@@H]2C(=O)O)c1 | Glutamate receptor ionotropic, kainate 3 (Rattus norvegicus, UniProt P42264) | binding, radioligand binding | Sf9 membranes | homomeric receptor, added: [3H]kainate | 2410 ± 1060 nM
C/C(=N\OCCN1CCc2ccccc2CC1)c1ccc(C(F)(F)F)cc1 | Sigma non-opioid intracellular receptor 1 (Sigmar1, Rattus norvegicus, UniProt Q9R0C9) | radioligand binding | rat |  | 44.8 nM and 44.8 to 48.3 nM
CCCCCCCCCCCCCC[C@@H](O)[C@@H](O)[C@H](CO[C@H]1O[C@H](CO)[C@H](O)[C@H](O)[C@H]1O)NC(=O)CCCCCCCCCCc1ccccc1 | Cd1d1, dimeric Ig fusion (Mus musculus, UniProt P11609) | binding, competitive microarray binding |  | added: printed glycolipid 100 µM | 1600 ± 900 nM
COC(=O)C1(C)C=C(C(=O)NCC(C)(C)O)C(=O)CC1 (stereo not shown) | MAPK8 | D-peptide displacement, fluorescence polarization |  |  | > 200000 nM
O=C(O)c1cc(C(=O)N[C@@H](CS)C(=O)O)cc([C@H]2CCN[C@@H]2C(=O)O)c1 | NMDA receptor (rat) | binding, radioligand binding | rat cortical synaptosomes | added: [3H]CGP39653 | 1000 to 5000 nM
Cc1ccc(N=Nc2c(O)c(S(=O)(=O)O)cc3cc(S(=O)(=O)O)ccc23)c(C)c1 | Bcl-2-related protein A1 (Mus musculus, UniProt Q07440, C113S/P104K) | binding, inhibitor, fluorescence polarization |  | added: FITC-labelled Noxa peptide | > 20300 nM
O[C@@H](c1ccc(F)cc1)C(F)(F)CCN1CCC(O)(c2ccc(Cl)cc2)CC1 (racemic) | Sigma intracellular receptor 2 (Tmem97, Rattus norvegicus, UniProt Q5U3Y7) |  |  |  | 30.9 ± 4.3 nM
Cc1cc(NC(=O)c2cccc(NC(=O)C3=CC(C)(C)CC3=O)c2)ccc1Nc1nccc(-c2cccnc2)n1 | MAPK8 | SPR two-step reversible model |  |  | 10.7 nM
CNc1nc(C#CCCc2cn(CCNC(C)=O)nn2)nc2c1ncn2[C@H]1C[C@H](OP(=O)(O)O)[C@]2(COP(=O)(O)O)C[C@H]12 | P2Y purinoceptor 1 (P2RY1, Homo sapiens, UniProt P47900) | binding, radioligand binding | Sf9 cell membranes | 30 min, 4 °C, added: iodinated P2Y1 antagonist radioligand | 300 ± 200 nM
CCOC(=O)C1(C)C=CC(=O)C(C(=O)OC)=C1 (stereo not shown) | MAPK8 | docking peptide binding, competitive inhibitor, fluorescence polarization |  | added: labelled JIP1 peptide | > 200000 nM
CCCCCCCCC(CCCCC=CCCCCC(CCCCCCCC)C(=O)OCC1(CO)CC(=C(C)C)C(=O)O1)C(=O)OCC1(CO)CC(=C(C)C)C(=O)O1 (racemic) | Protein kinase C delta type, C1b domain (Prkcd, Mus musculus, UniProt P28867) | binding, [3H]PDBu competition |  | 5 min, 37 °C, added: phosphatidylserine 100 µg/mL | 0.8 ± 0.05 nM
COC(=O)C1(C)C=C(C(=O)NC(C)(C)CO)C(=O)CC1 (stereo not shown) | Mitogen-activated protein kinase 14 (MAPK14, Homo sapiens, UniProt Q16539) | D-peptide displacement, fluorescence polarization |  |  | 53000 ± 11100 nM
CCCCCCCCC(CCCC=CCCCC(CCCCCCCC)C(=O)OCC1(CO)CC(=C(C)C)C(=O)O1)C(=O)OCC1(CO)CC(=C(C)C)C(=O)O1 (racemic) | Protein kinase C alpha type (PRKCA, Homo sapiens, UniProt P17252) | binding, [3H]PDBu competition |  | added: phosphatidylserine 100 µg/mL | 15.9 ± 1.4 nM
Cc1ncsc1-c1ccc(CNC(=O)[C@@H]2C[C@@H](O)CN2C(=O)c2cccc(C#N)c2)cc1 | von Hippel-Lindau disease tumor suppressor, with elongin B, C (VHL, Homo sapiens, UniProt P40337) | inhibitor, fluorescence polarization | VHL-elonginB-elonginC complex | 1% DMSO, added: FAM-DEALA-Hyp-YIPD peptide | 8100 nM
